Results from different studies.
Each line is one published result; not all experiments were run side by side. ± marks the error that the study gave.

Compound | test | system | conditions | measured concentration
COc1ccc([C@@H]2CC(=O)c3c(O)cc(O[C@@H]4O[C@H](CO[C@@H]5O[C@@H](C)[C@H](O)[C@@H](O)[C@H]5O)[C@@H](O)[C@H](O)[C@H]4O)cc3O2)cc1O | – | rat plasma | 15.62 ng/mL, 12 h, room temperature, autosampler stability | 16.9 ± 0.23 ng/mL
Cc1[nH]c(/C=C2\C(=O)Nc3ccc(F)cc32)c(C)c1NC(=O)CCN1CCN(C)CC1 | – | dog plasma | 80 ng/mL nominal, 30 d, -80 °C, frozen storage | 71.3 ng/mL
COc1ccnc(C[S+]([O-])c2nc3cc(-n4cccc4)ccc3[nH]2)c1C (stereo not shown) | – | rat plasma | 2.5 ng/mL spiked, 4 h, room temperature, working solution:plasma 5:95 v/v | 2.52 ng/mL
Oc1ccc2ccccc2c1/N=N/c1ccccc1 | – | rat whole blood extract | 0.5 µg/L, 30 days, -20 °C, long-term storage | 0.504 ng/mL
COc1ccc(-c2cc(=O)c3c(O)cc(O[C@@H]4O[C@H](CO[C@@H]5O[C@@H](C)[C@H](O)[C@@H](O)[C@H]5O)[C@@H](O)[C@H](O)[C@H]4O)cc3o2)cc1 | short-term stability | rat plasma | 8 h, room temperature, medium QC level | 755 ± 10.8 ng/mL
COC(=O)C(c1ccccc1Cl)N1CCC2SC(=O)C=C2C1 (stereo not shown) | LC-MS/MS | human plasma | 2 ng/mL spiked, 8 h, room temperature | 2.2 ± 0.4 ng/mL
CNC(=O)N[C@]1(C)CCC[C@@]2(C)C3CC[C@@]4(C)C[C@]3(CCC21)CC4=O (single isomer, unassigned) | – | processed rat plasma | 40 ng/mL, 24 h, 4 °C, autosampler stability | 39.7 ± 0.45 ng/mL
C[N+](C)(C)CC(CC(=O)[O-])OC(=O)CCC(=O)Nc1ccn([C@@H]2O[C@H](CO)[C@@H](O)C2(F)F)c(=O)n1 (stereo partly shown) | – | THU-treated rat plasma | 125.00 ng/mL, -80 to 20 °C, three freeze-thaw cycles, mid QC | 109 ± 1.4 ng/mL
COC(=O)C(c1ccccc1Cl)N1CCC(SCC(=O)c2cccc(OC)c2)C(=CC(=O)O)C1 (stereo not shown) | LC-MS/MS | human plasma | 50 ng/mL, after freeze-thaw cycles | 51.5 ± 3.8 ng/mL
Cc1ccc(/N=N/c2c(O)ccc3ccccc23)c(C)c1 | – | extracted rat blood QC samples | 0.2 µg/L, 8 h, room temperature, short-term stability | 0.224 ng/mL

For quick reference, copied from above:
Compound | test | system | conditions | measured concentration
CNC(=O)N[C@]1(C)CCC[C@@]2(C)C3CC[C@@]4(C)C[C@]3(CCC21)CC4=O (single isomer, unassigned) | – | processed rat plasma | 40 ng/mL, 24 h, 4 °C, autosampler stability | 39.7 ± 0.45 ng/mL
